Published values pooled from the literature.
Numbered parts are unrelated; each lists some results of a single study. Positions count from the first letter of the parent shown.

Set 1 — technique: protein-binding microarray; molecule type: double-stranded DNA, one strand shown; sample: in vitro; tested at: 250 nM; setting: 60-bp whole probe; together with: salmon DNA 0.4 mg/ml; reference: random background probes; direction: higher = stronger binding; quantity: log fluorescence; constant ends, left off below: GCCTAGCAC … GTCTTGATTCGCTTGACGCTGCTG
Target: Interferon regulatory factor 7, full length, phosphomimetic (IRF7, Homo sapiens, UniProt Q92985, residues 1-503, S101K/S471D/S472D/S475D/S476D/S477D/S483D/S484D/S487D)
Residues (chain): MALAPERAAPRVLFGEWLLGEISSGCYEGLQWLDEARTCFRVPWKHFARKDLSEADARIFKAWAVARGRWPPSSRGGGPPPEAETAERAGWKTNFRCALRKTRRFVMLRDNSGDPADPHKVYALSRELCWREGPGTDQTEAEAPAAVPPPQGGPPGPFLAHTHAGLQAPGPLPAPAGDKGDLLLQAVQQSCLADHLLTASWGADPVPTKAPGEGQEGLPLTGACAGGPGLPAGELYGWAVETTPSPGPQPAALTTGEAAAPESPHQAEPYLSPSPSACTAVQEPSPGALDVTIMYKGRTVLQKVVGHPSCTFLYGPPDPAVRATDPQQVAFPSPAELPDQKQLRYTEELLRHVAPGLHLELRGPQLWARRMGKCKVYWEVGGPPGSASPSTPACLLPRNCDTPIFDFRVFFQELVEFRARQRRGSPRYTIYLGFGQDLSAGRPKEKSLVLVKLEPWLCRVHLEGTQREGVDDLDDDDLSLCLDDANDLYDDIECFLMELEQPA
GACGGACTGCATTTCCTGACGTGCTAG: -0.139 z-score
TTAGGACTGGACTTCCGGTTAGTGCTA: -0.542 z-score
GACGGACTGCTACTCCTGACGTGCTAG: -0.604 z-score
GACGGTATCGGGTTTCGGGCCGTGCTA: 2.04 z-score
TTAGATTTAGGGTTTCGATTAGTGCTA: 6.07 z-score
TCATTTTGGTCTTTCTGACTGTGCTAG: 0.947 z-score
GACGGTTTCCTTTTCCTGGCGTGCTAG: 6.92 z-score
GACGTTTTCGACACTGGGGACGTGCTA: 0.92 z-score
CACGGTATCGACTTTCGGGACGTGCTA: 1.38 z-score
TTAGGTTTCGGTCTCTGTTAGTGCTAG: 10.1 z-score
TCAGTTGTACTTTCTATCACTGTGCTA: 0.305 z-score
TTAAGACTGCTTATCCTTTAGTGCTAG: 0.0729 z-score
TTAGGACTGGACATTGGGTTAGTGCTA: -0.582 z-score
TCATACATGAGTTTAGAACTGTGCTAG: 0.0832 z-score
TCAGACTTGATTTTGGTACTGTGCTAG: 0.0929 z-score
TCAAATCTCTCTTCACAACTGTGCTAG: 0.779 z-score

Set 2 — technique: RNA Bind-n-Seq; molecule type: RNA; sample: in vitro; tested at: 365 nM; reference: no-protein control; direction: higher = stronger binding; quantity: RBNS enrichment (R)
Target: RNA binding protein fox-1 homolog 2, RRM domain, GST-SBP tag (RBFOX2, Homo sapiens, UniProt O43251-10, residues 100-194)
Setting: natural RNA segment, single round, ends assumed
Residues (chain): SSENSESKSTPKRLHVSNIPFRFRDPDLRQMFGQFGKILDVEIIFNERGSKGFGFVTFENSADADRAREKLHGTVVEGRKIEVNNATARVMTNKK
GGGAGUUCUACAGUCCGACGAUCACCUAGCUUUGUCUUUGCCCCAGGUCCCCAUGAACUUCCCUGUCCUCAGCUGAAUGCCUCCAAGUCCCUGGCCUGUAGCUUCUCCCAGGCUUAUCAUCCAAUCCCCUUUAUGGAAUUCUCGGGUGCCAA: 0.453
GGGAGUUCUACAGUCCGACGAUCUUAAAGCUUCCUGGUGCCUGUCUGCCAGGUCAUGGAGGAUUCCCCAAUCUGGCAUCCCCACGAUGCCUCUGGAGAGAUGGCCUUGAUUGCCCCUCAAAGCCACCUGAACCUGGAAUUCUCGGGUGCCAA: 0.31
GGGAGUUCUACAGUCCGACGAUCAGAAAGAACAUUUGUGAAUUGCAGUUGUCAAAAAAAAAAAAUAGCCUAGCUGGCCUUAUUUGUGAAGCAUAAUUGCUUUUAGCAUAUGGAAGUAUUUUUUCACAUUUUCUUGGAAUUCUCGGGUGCCAA: 0.361
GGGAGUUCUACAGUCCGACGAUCUCCAGCCGUGCUUGGCCUCAGGGCUGGCAGCCGGAUCCUGGGGCAACCCAUCUGGUCUCUUGAAUAAGGUCAAAGCUGGAUUCUCGCCAUGGCCUCCGUCUCACAUCUAAUGGAAUUCUCGGGUGCCAA: 0.282
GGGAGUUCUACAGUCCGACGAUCAUUUAUUUCAGAGCGGAGAAACUUAAGCUAAAGUCUGUUAUACAGAAUUGAAAGCCUUCGUAUCUUGAACCUCCCAACAUUUUUCUUAUGGCUGUUGAAAAGUAUAGAGCUGGAAUUCUCGGGUGCCAA: 0.707
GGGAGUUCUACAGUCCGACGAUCAACUAGGGAGAGGAAAAAGGAGCUCAUCUCUCAGCCCCUUCUUCAUAGCAUUUACAGCCCCGGGCUGUACCCAGACCAGGCUACCUGGGCAGCACAAAGGGCAAGGAGAGUGGAAUUCUCGGGUGCCAA: 0.401
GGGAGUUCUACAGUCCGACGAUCCUCCCGCCUCGAGCGCAUUGAGUCCACAGAAAUCUGAUCGACCUGGGCACUCGGCAUUUUGACACAUGUCCUGUCAAAAGGCCAGAGUCCCCAGUGUCCCCUCCCCUCCAUGGAAUUCUCGGGUGCCAA: 0.314
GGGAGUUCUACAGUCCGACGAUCUUUGACCUCACCAGGCCUCAUGCUUCCCUUUAAUGUAAAGGGAAGGGGUUUGCCCACUUUCCUCUUUUUGGGGUUGGUGAGAGGGCAAACCCUGAUAUUUUUACUGUGAAUGGAAUUCUCGGGUGCCAA: 0.231
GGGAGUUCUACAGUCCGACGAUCAGAUGUUCGUUUCUGGUGGAAAUUGGGCCCCUGUGUUCCUCCAGGGCAAGUCUCAGGGGAAGCUCAUGUCUUUCUGCUUUACAAAGUGCUUCAAGCGUCAGCUCCAAGUGUGGAAUUCUCGGGUGCCAA: 0.271
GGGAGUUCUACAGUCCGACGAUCUCAUUGGACUAGUGCAGAGGCUUUAAGUAGUUUAAAAUGGGCUUUUGCUUUUCUAGGUCAUUAACGUUUUUUAUUUAGUUUCUUUAGCCAAUAGUGGCUGAGUUUCGCACUGGAAUUCUCGGGUGCCAA: 0.464
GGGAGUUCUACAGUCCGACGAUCGCAUGCAAAUCCAUAUUCUAGCACACCACACAGUGCCCACAGCUCUGCGGUGCUGAGCCAGCAGAAAUGAUUUCUUCAGCAGAUGUACCAGCUGUCAUCACUGACGUAUGUGGAAUUCUCGGGUGCCAA: 4.43
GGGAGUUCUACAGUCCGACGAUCAUUGCCUCUGACUUCCUCCUCCCCUGGGUUCUGACUUCUUCCUCCCCUUGCUUCCAGGGAAGAUGAAGAGAGAGAGAUUUGGAAGGGGCUCUGGCUCCCUAACACCUGAAUGGAAUUCUCGGGUGCCAA: 0.566

Set 3 — target: CCNA1, cyclin fold, Cln2 fusion (human); technique: yeast growth competition, sequencing; sample: yeast; setting: weak parent motif; reference: not given; direction: higher = stronger binding; quantity: normalised enrichment score
Starting sequence: RBL1 docking peptide (human); GSAKRRLFGEDPP; partner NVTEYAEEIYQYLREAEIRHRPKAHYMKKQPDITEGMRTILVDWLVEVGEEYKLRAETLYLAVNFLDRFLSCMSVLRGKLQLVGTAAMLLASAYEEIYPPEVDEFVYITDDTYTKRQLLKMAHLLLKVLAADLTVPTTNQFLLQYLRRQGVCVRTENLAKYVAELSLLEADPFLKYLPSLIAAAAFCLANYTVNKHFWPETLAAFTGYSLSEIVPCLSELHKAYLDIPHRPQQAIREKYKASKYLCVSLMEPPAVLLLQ
G1N: 0.0786
R6S: 0.613
G1D: 0.533
G9A: 0.867
R5K F8L: -0.0331
D11V: 0.181
R5A L7A: -0.00234
F8N: 0.375
R6D: -0.0447
R6Y: 0.695
S2V: 0.545
L7D: 0.161
S2Q: 0.595
P13Q: 0.393

Further values, each from its own experiment
PhoQ, residues 284 288 289 292 302 303 AEGLLW  fold induction (PhoP, residues 12 14 15 18 19 SFCSL (Escherichia coli, UniProt P23836); Sort-seq, item: YFP reporter; E. coli; PhoQ-PhoP variant library, together with: 10 µM Mg2+; reference: high Mg2+ state, higher = stronger signaling): 4.67
